Measurements of several laboratories.
± gives the spread as reported.
OPRL1: Nociceptin receptor (OPRL1, Homo sapiens, UniProt P41146)
OPRK1: Kappa-type opioid receptor (OPRK1, Homo sapiens, UniProt P41145)
OPRD1: Delta-type opioid receptor (OPRD1, Homo sapiens, UniProt P41143)

The chains behind the UniProt entries cited, without tags or fusion partners. Residues count along the entry.
UniProt P41146, whole entry: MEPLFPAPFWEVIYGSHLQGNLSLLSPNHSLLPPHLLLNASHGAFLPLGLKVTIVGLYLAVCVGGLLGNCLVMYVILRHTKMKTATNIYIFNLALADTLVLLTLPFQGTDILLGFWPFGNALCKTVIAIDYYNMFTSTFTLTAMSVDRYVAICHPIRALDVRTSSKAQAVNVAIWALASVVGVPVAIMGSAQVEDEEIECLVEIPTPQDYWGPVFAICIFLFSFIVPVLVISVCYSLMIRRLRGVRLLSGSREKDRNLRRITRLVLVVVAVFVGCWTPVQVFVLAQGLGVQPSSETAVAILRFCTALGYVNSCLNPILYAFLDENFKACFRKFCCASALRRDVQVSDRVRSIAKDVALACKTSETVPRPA
UniProt P41145, whole entry: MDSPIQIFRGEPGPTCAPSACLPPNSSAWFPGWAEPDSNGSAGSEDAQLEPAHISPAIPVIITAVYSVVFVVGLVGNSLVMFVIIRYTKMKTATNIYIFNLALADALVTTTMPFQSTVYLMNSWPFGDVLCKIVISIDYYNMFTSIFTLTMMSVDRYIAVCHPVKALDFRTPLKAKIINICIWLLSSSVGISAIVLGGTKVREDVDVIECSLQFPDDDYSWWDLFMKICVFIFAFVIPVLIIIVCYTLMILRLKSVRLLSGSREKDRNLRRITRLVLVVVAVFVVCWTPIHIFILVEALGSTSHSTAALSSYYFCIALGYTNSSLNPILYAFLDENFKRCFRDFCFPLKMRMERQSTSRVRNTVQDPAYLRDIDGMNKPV
UniProt P41143, whole entry: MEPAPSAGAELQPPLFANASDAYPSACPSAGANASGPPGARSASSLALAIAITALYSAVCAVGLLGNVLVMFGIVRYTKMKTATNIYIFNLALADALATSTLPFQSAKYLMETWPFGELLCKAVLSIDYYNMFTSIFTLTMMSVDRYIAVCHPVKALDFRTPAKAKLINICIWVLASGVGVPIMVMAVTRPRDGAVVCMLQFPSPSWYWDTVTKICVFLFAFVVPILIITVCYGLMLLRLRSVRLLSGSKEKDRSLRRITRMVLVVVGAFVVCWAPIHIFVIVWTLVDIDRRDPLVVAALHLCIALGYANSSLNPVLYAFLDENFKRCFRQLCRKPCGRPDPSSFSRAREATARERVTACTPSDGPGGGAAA
UniProt A0A286XTF2, 1-366: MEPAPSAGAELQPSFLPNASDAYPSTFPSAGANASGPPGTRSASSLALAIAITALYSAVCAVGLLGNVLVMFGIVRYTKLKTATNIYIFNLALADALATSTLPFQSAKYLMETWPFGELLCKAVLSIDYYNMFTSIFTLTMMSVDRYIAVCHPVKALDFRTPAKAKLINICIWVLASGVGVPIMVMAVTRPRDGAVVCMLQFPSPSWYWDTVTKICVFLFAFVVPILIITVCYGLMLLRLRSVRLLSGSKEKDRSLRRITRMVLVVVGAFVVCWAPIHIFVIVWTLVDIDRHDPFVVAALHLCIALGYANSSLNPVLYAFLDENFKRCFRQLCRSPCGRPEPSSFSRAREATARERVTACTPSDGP
UniProt P33535, whole entry: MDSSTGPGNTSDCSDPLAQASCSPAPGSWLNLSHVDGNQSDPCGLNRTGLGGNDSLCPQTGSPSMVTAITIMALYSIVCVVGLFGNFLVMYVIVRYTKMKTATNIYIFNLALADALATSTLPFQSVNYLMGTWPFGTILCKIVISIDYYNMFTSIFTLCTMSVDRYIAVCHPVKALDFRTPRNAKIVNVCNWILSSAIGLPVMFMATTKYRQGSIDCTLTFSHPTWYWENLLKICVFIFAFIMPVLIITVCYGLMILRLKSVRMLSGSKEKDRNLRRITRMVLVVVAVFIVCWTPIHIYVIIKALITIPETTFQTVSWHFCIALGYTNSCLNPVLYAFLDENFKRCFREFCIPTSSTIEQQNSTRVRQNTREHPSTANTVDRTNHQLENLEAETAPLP
UniProt P21462, whole entry R190W: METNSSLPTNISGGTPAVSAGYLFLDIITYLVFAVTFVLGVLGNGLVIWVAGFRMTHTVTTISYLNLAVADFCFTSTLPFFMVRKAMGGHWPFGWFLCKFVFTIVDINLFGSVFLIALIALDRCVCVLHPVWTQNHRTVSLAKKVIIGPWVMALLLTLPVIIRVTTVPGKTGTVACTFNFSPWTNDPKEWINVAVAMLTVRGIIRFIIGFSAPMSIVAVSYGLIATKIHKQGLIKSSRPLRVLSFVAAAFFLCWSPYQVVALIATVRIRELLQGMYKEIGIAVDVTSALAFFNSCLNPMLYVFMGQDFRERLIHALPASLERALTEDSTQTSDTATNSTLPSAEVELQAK

| Molecule | target | assay | test system | conditions | Ki |
| --- | --- | --- | --- | --- | --- |
| CO[C@]12C=C[C@@]3(C[C@@H]1[C@@H](O)c1ccccc1)[C@H]1Cc4ccc(O)c5c4[C@@]3(CCN1CC1CC1)[C@H]2O5 | G_PROTEIN_RECEP_F1_2 domain-containing protein (Cavia porcellus, UniProt A0A286XTF2) | binding, radioligand displacement | guinea pig brain membranes | together with: [3H]DPDPE | 0.0004 µM |
| CCC1C(=O)N(C2CCN(CCCCc3ccc(-c4ccccc4)cc3)CC2)c2ccccc21 (stereo not drawn) | OPRL1 | radioligand displacement | – | together with: [3H]N/OFQ | > 10 µM |
| CO[C@]12CC[C@@]3(C[C@@H]1[C@](C)(O)c1cccs1)[C@H]1Cc4ccc(O)c5c4[C@@]3(CCN1CC1CC1)[C@H]2O5 | OPRK1 | binding, radioligand displacement | CHO | together with: [3H]diprenorphine | 0.0028 ± 0.00078 µM |
| O=CN1CC[C@]23c4c5ccc(O)c4O[C@H]2[C@@H](O)C=C[C@H]3[C@H]1C5 | Oprm1 (Rattus norvegicus, UniProt P33535) | – | rat brain membranes | together with: [3H]DAMGO | 0.42 ± 0.03 µM |
| N=C(N)NCCC[C@H](N)C(=O)NCC1(Nc2ccccc2)CCN(Cc2ccccc2)CC1 | OPRD1 | binding | – | together with: [3H]DPDPE | > 5 µM |
| CCC1C(=O)N(C2CCN(C3CCc4ccccc4C3)CC2)c2ccccc21 (stereo not drawn) | OPRL1 | radioligand displacement | – | together with: [3H]N/OFQ | 0.012 ± 0.00258 µM |
| N=C(N)NCC(=O)NCC1(Nc2ccccc2)CCN(Cc2ccccc2)CC1 | OPRK1 | binding | HEK293 membranes | together with: [3H]U-69,593 | 0.705 ± 0.08 µM |
| CCC1C(=O)N(C2CCN(C/C=C/c3ccccc3)CC2)c2ccccc21 (stereo not drawn) | OPRK1 | radioligand displacement | – | together with: tritiated U-69593 | 1.37 ± 0.185 µM |
| N=C(N)NCCNC(=O)C1(Nc2ccccc2)CCN(Cc2ccccc2)CC1 | OPRD1 | binding | – | together with: [3H]DPDPE | 2.61 ± 0.65 µM |
| CC[C@H](C)[C@H](N)C(=O)N[C@@H](CC(=O)O)C(=O)N[C@@H](CCCNC(=N)N)C(=O)N[C@@H](CC(C)C)C(=O)N[C@@H](CC(N)=O)C(=O)N[C@@H](CCC(=O)O)C(=O)N[C@H](C(=O)N[C@@H](C)C(=O)N[C@@H](CCCCN)C(=O)N[C@@H](CC(N)=O)C(=O)N[C@@H](CC(C)C)C(=O)N[C@@H](CC(N)=O)C(=O)N[C@@H](CCC(=O)O)C(=O)N[C@@H](CO)C(=O)N[C@@H](CC(C)C)C(=O)N[C@H](C(=O)N[C@@H](CC(=O)O)C(=O)N[C@@H](CC(C)C)C(=O)N[C@@H](CCC(N)=O)C(=O)N[C@@H](CCC(=O)O)C(=O)N[C@@H](CC(C)C)C(=O)NCC(=O)N[C@@H](CCCCN)C(=O)N[C@@H](Cc1ccc(O)cc1)C(=O)N[C@@H](CCC(=O)O)C(=O)N[C@@H](CCC(N)=O)C(=O)N[C@@H](Cc1ccc(O)cc1)C(=O)N[C@H](C(=O)N[C@@H](CCCCN)C(=O)N[C@@H](Cc1c[nH]c2ccccc12)C(=O)N1CCC[C@H]1C(=O)N[C@@H](Cc1c[nH]c2ccccc12)C(=O)N[C@@H](Cc1ccc(O)cc1)C(=O)N[C@H](C(=O)N[C@@H](Cc1c[nH]c2ccccc12)C(=O)N[C@@H](CC(C)C)C(=O)O)C(C)C)[C@@H](C)CC)[C@@H](C)CC)C(C)C | FPR1 (Homo sapiens, UniProt P21462, R190W) | binding, competition binding | – | 4 °C, together with: formyl-Nle-Leu-Phe-Nle-Tyr-Lys-FITC 0.3 nM | 0.77 ± 0.025 µM |
| COc1cc(NC2(CNC(=O)CNC(=N)N)CCN(Cc3ccccc3)CC2)cc(OC)c1 | OPRK1 | binding | HEK293 membranes | together with: [3H]U-69,593 | 4.25 ± 0.58 µM |
| mercury(II) acetate | Botulinum neurotoxin type A, light chain (Clostridium botulinum, UniProt P0DPI0) | SNAPtide cleavage, noncompetitive inhibitor | – | – | 0.109 µM |

A few entries again:
| Molecule | target | assay | test system | conditions | Ki |
| --- | --- | --- | --- | --- | --- |
| N=C(N)NCCC[C@H](N)C(=O)NCC1(Nc2ccccc2)CCN(Cc2ccccc2)CC1 | OPRD1 | binding | – | together with: [3H]DPDPE | > 5 µM |
